Measured values gathered from unrelated publications.
Parts stem from different laboratories: compare values within a part only.

Sample 1 — technique: RNA Bind-n-Seq; form: RNA; medium: in vitro; tested at: 200 nM; notes: whole 134-nt RNA, ends assumed; added: 150 mM LiCl; reference: input library; direction: higher = stronger binding; each molecule: 7-deaza-guanosine replaces G
Target: Ras GTPase-activating protein-binding protein 1, full length (G3BP1, Homo sapiens, UniProt Q13283)
Sequence of UniProt Q13283 (whole entry, looked up): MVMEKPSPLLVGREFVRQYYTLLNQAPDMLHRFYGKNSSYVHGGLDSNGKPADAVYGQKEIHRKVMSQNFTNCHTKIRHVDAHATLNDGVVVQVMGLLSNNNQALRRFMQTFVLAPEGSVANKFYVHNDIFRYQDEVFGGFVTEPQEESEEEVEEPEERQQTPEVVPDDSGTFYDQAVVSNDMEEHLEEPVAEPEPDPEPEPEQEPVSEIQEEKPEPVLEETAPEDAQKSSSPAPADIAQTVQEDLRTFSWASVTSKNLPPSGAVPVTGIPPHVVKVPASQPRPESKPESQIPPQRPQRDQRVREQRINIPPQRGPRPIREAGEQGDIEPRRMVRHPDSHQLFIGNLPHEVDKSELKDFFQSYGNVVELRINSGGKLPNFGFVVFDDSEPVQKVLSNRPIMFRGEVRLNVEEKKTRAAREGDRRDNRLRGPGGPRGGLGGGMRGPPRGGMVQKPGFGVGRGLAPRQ
| Strand | log2 enrichment |
| --- | --- |
| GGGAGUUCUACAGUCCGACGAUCUGGCCCUGGUGGCAUGCGGGGAGGAAGAGGUGGCCUCAUGGAUCGUGGUGGUCCCGGUGGAAUGUUCAGAGGUGGCCGUGGUGGAUACAGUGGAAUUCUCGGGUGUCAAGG | -0.124 |
| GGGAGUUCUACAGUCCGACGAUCUGGCCCUGGUGGCAUGCGGCGAGGAAGAGGUGGCCUCAUGGAUCGUGGUGGUCCCGGUGGAAUGUUCAGAGGUGGCCGUGGUGGAGACAGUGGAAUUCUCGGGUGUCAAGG | 0.151 |
| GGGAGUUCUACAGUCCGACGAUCCACAGACAACACGCACCCACACAGACCCAGAGGGAAGGGGUUGGGAUGGGGACAGGGUGCACAGCAGGGCGGGGUAGGACCCCAGCCCCUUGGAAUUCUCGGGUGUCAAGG | -0.58 |
| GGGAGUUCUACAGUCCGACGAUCGUCCUGUGCUACACAUCGUAUGUACCGAAUCGGGCCCCGGGGCCCCGGGGCCCCGGGGAAAGUAUUAUGUUACGCCGUUCGGAUCUGCACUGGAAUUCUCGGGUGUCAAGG | -0.0682 |
| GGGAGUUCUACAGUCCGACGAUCACCAUGCAGGUGGGCAUCUUUGGGAAGUGGGGCAAGGGGGGGAUAGGGAGGGGGGUAACACUUUGGGAACAGGUGGUCCCCGGUCGUUUCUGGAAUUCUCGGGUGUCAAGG | 0.424 |
| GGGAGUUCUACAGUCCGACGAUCGCAGGAAGUAAAAACAAAUGGAAAUGCUUCGGAUAGUGGCAGGGGUGGGGGUUGCUAAGGAAAGGGUGGGAUGGGAGUGGGUAAACAGUUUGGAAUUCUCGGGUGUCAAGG | -0.415 |
| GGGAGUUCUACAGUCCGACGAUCUCAAGUCCUGUGCUACACAUCGUAUGUACCGAAUCGGUGGAAAGGUUUUUUUGGAAAGUAUUAUGUUACGCCGUUCGGAUCUGCACUUCCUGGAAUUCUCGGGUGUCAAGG | -0.672 |
| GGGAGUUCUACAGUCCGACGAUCCAAGUCCUGUGCUACACAUCGUAUGUACCGAAUCGGAAAGGAAAGGGGAAAGGGGAAAGUAUUAUGUUACGCCGUUCGGAUCUGCACUUCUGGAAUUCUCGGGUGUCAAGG | 0.0793 |
| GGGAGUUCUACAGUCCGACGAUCCAAGUCCUGUGCUACACAUCGUAUGUACCGAAUCGGGAGGGAAAAAAAGGGAGGGAAAGUAUUAUGUUACGCCGUUCGGAUCUGCACUUCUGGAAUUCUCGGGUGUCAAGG | 0.409 |
| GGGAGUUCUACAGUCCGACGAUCAAGUCCUGUGCUACACAUCGUAUGUACCGAAUCGGGUUUGGGUUUGGGUUUUUGGGAAAGUAUUAUGUUACGCCGUUCGGAUCUGCACUUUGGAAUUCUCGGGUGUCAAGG | -0.576 |
| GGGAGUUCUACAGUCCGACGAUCACCAUGCAGGUGGGCAUCUUUGGGAAGUGGGGCAAGGGGGGGAUAGGGAGGGGGUUAACACUUUGGGAACAGGUGGUCCCAGGUCGUUUCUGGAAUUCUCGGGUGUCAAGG | 0.39 |

Sample 2 — technique: protein binding microarray; form: double-stranded DNA, one strand shown; medium: in vitro; tested at: not given; reference: not given; direction: higher = stronger binding
Target: Histone acetyltransferase KAT6A, winged helix 2, GST fusion (KAT6A, Homo sapiens, UniProt Q92794, residues 85-181)
Notes: 8-mer, flanks averaged, mean of 2 arrays, mostly near background
Target sequence (chain): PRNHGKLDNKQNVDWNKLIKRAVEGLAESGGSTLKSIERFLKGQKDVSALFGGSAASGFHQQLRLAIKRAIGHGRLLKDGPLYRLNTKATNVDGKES
| Strand | E-score |
| --- | --- |
| CTTCGTTC | 0.0667 |
| AGTATCAG | -0.0799 |
| ATTATGAA | -0.068 |
| AACTTTCA | 0.147 |
| ATCTGGCC | 0.0299 |
| AAGCGTTA | -0.138 |
| CCACACCG | 0.114 |
| CCTAAGGC | -0.148 |
| GTGATTTA | 0.0472 |
| GGGTAGGA | -0.0127 |
| GGACTCTA | -0.15 |
| GTGGCGCA | -0.0772 |
| CGGTTAAG | 0.0167 |
| CGGTTTAG | 0.146 |
| CCATATTA | 0.0598 |
| CCTATACA | -0.196 |
| CAACTAAC | 0.00566 |
| ACGAATAG | -0.11 |
| GAAATTCC | -0.0119 |
| GAGTGTTA | 0.0332 |
| ACCCACTC | 0.194 |
| CCCAGTCG | -0.119 |

Sample 3 — technique: RNA Bind-n-Seq; form: RNA; medium: in vitro; tested at: not given; reference: input RNA pool; direction: higher = stronger binding
Target: RING finger protein unkempt homolog, zinc fingers 1-6, GST-SBP tag (UNK, Homo sapiens, UniProt Q9C0B0, residues 30-357)
Sequence of UniProt Q9C0B0 (30-357, looked up): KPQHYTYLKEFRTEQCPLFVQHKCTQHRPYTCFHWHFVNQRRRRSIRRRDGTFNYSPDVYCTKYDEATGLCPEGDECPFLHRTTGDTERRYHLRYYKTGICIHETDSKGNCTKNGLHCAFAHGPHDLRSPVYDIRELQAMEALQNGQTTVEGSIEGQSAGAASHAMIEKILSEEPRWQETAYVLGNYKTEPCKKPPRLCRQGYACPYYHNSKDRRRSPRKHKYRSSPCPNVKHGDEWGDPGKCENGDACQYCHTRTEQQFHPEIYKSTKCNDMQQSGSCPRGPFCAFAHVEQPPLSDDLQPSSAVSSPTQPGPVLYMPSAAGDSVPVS
Notes: RNA with constant flanks, human-mouse chimeric sites, ends assumed
| Strand | bound/input enrichment [ratio] |
| --- | --- |
| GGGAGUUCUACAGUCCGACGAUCGCUGAAAAUGAAGAAGAGGCAGCUGAUGUCUGGUACAACCUGGGGCACAUAGCUGUGGGAAUCGGAGAUACAAAUUUGGCCCACCAAUGCUUCAGGCUGGCCCUGGUCAACAACAACCACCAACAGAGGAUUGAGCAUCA | 0.161 |
| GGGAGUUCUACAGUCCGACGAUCUAAGUCCAUUUGUAAGCCUUCGCUCAUAAAGUUUUAAAUUCUGGACCAAUAGUGUUUGUUUCCUGAUUUUUGUAUUCAAUACUUUGCCUAGUAUGUAACUCACUCUUACUGAUAAUAAAACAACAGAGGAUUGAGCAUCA | 0.797 |
| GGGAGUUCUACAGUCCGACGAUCCCAAGUGAUUCAUCCCAAGGACAGGCCACCCCAUUUGAUGCCUGGACUGAUGACAGUAUGGAAGGGCCUAGUCAAAAUGUUGAAGCUGAGUCAAUUCAGGAUGCCAUGCAUAUGGCAGAGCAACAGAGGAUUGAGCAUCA | 0.162 |
| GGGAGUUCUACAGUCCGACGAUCUCUGGUCAUACUCGUGCGUAUGGUGUUUGCUUUGUGGACACUUCACUGGGCAAGUUUUUCAUCGGCCAGUUUUCGGAUGACCGCCACUGUUCCAGAUUUAGGACGCUAGUGGCACACUAUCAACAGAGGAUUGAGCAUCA | 0.17 |
| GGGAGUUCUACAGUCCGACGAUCCUGAGGAUACCACUGAAGAGACCUUAAAAGGAGUCAUUGAGGGCUCUGUUCGUGCAAAGGAUAGUUAUGAUCGGGAAACUGGUUCUUCCAAAGGGUUUGGUUUUGUAGACUUUAAUAGUGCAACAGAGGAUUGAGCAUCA | 1.03 |
| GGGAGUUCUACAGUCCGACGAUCUGUGCAUAUGAUGCUUGGAGAUGGUUUUGCAAAAGCAGAAAUCGCUGCAAGGUAAUCCUAAUAGAGAAAAGUGGUAUUUUAAACCUUUGAAAUAAAUGGAUGUAACUGUACCUUGGUACACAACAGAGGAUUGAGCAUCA | 1.01 |
| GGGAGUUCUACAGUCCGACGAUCGGACAUCUGUCAAAUUGUUAUGUUCCUGUGAAACAAGUGAGCACUUUGAUACACUUCAUCUGCUUGUACAUCUGUAUGAUAGAGAAAUGUAAAUAUGUUAAUCCAAGCAAUGUGUCACUUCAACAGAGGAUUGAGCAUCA | 0.237 |
| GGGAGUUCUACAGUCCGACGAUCAUCAAAUACUUUGGGGACAUCAUUAGUGUGGGACAGAGACUGUUGCAAGGGGCCCGGAUCUUAGGGAUUCCAGUUAUCAUAACGGAACAAUACCCCAAAGGACUUGGCAGCACCGUUCAACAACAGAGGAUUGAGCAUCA | 0.251 |
| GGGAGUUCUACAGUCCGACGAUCCUUAAUGAUAUUUUGAGUGAAUAAAUGAAGCUAAAAUGUCUGCUUUUGGUACAACACGCAUUAAUAAAAGGUUAAGUUUUGUUUUCCCUCCACUGAAUAUUUAACAUCUCAGAAAAAAACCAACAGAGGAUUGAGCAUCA | 0.144 |
| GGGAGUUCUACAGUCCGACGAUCGAUCAUGAACCACCAUCAGAAAUGAAGGAUGAGACUACCAGACGAGCCCAAAACCGCGCGCUACAGAAAAGUAAACUUAACCUUGCAGAGUUCCUUAAUGAAGAUACAAGUUAAGAGAGCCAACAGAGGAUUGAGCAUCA | 0.144 |
| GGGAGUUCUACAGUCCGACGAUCUUCUAGUAUGAUGGUGAUAUUGGCAAUUAUUAUUAUGGCCAGGGUCAUCCCAUGAAGCCUCAUAGAAUCCGGAUGACUCAUAACUUGCUGCUAAAUUAUGGUUUAUACCGAAAAAUGGAACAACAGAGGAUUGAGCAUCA | 0.171 |

Sample 4 — technique: protein-binding microarray; form: double-stranded DNA, one strand shown; medium: in vitro; tested at: not given; direction: higher = stronger binding
Target: Hepatocyte nuclear factor 3-beta, forkhead domain (FOXA2, Homo sapiens, UniProt Q9Y261, residues 142-269)
Notes: k-mer, scored over probes, only values ≥0.25
Target sequence (chain): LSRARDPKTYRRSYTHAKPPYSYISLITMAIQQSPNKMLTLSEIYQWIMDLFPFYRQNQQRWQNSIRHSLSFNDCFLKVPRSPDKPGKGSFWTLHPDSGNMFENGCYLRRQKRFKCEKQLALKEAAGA
| Strand | E-score |
| --- | --- |
| AACATTGT | 0.347 |
| GTGGTATA | 0.308 |
| AATACAGC | 0.257 |
| GAGGTATA | 0.266 |
| TACATATA | 0.48 |
| ATAAGGAT | 0.26 |
| ACTATCAT | 0.26 |
| GTATCAAA | 0.28 |
| ATAGACAT | 0.286 |
| ATACATAC | 0.342 |
| ATGTAGTA | 0.296 |
| AATTGTAG | 0.265 |
| ATTCAAAC | 0.265 |
| AGTATGTA | 0.263 |
| CATAGAAA | 0.278 |
| ACATTACG | 0.276 |
| GTAAACAC | 0.344 |
| AATTATCA | 0.355 |
| AATCAACA | 0.362 |
| TCATTAAA | 0.286 |
| ATAATATA | 0.388 |
| TGTAACAA | 0.286 |
| TAAGAACA | 0.297 |
| CATGTTTA | 0.329 |
| TCTACAAA | 0.287 |

A few entries again (sample 4):
| Strand | E-score |
| --- | --- |
| ATACATAC | 0.342 |
| ATGTAGTA | 0.296 |
| AATTGTAG | 0.265 |
| ATTCAAAC | 0.265 |
